Measurements pooled from the literature.
Each numbered part is a random draw from the data of one study; scales do not carry over between parts. Changes are numbered by the printed parent chain.

Study 1
Target: Prothrombin, mature alpha-thrombin (F2, Homo sapiens, UniProt P00734)
Method: aptamer microarray, sandwich
Form: DNA with 2'F-ANA
Medium: in vitro
Tested at: 200 nM
Setting: whole 15-mer aptamer, many near background
Together with: Cy3 exosite-II aptamer, 400 nM
Reading: higher = stronger binding
Endpoint: mean fluorescence intensity
Strand: GGTTGGTGTGGTTGG
2'F-ANA at 1 2 4 8 10 11 12 14 15: 53.1 a.u.
2'F-ANA at 3 7 9 13: 969 a.u.
2'F-ANA at 2 3 4 5 7 8 9 10 11 12 13 15: 55.1 a.u.
2'F-ANA at 3 4 5 7 8 9 10 12 13 14: 54.4 a.u.
2'F-ANA at 1 3 4 5 6 7 8 9 10 11 14: 58.8 a.u.
2'F-ANA at 3 4 9 10 12 13 14: 232 a.u.
2'F-ANA at 5 6 7 8 10 11 12 15: 49.7 a.u.
2'F-ANA at 1 4 7 8 9 12 13 14 15: 67.3 a.u.
2'F-ANA at 1 3 4 5 7 8 11 12 15: 95.8 a.u.
2'F-ANA at 1 2 4 6 7 14 15: 54 a.u.
2'F-ANA at 1 3 4 9 10 15: 65.2 a.u.
2'F-ANA at 2 3 4 6 8 10 11 13 14: 129 a.u.
2'F-ANA at 1 2 3 4 6 8 11 12 13: 216 a.u.
2'F-ANA at 2 5 6 10 14 15: 43.3 a.u.
2'F-ANA at 2 4 5 6 8 10 11 12 14 15: 67.7 a.u.

Study 2
Target: CCNA2, cyclin fold, Cln2 fusion (human)
Method: yeast growth competition, sequencing
Medium: yeast
Setting: strong parent motif
Relative to: not given
Reading: higher = stronger binding
Endpoint: normalised enrichment score
Starting sequence: SAMHD1 docking peptide (human); ASKSRVQLFKDDP
ASKSRVQLFKTDP [D11T]: 2.14
ASKSRVYLFKDDP [Q7Y]: 0.442
ASKMRVQLFKDDP [S4M]: 1.47
ASKSRVQLFKEDP [D11E]: 3.23
ASISRVQLFKDDP [K3I]: 1.04
ASKSRVQWFKDDP [L8W]: 0.0632
ASKSRVQLFKNDP [D11N]: 2.47
ASKSRVQPFKDDP [L8P]: -0.0445
ACKSRVQLFKDDP [S2C]: 3.94
ASKSRVQLFIDDP [K10I]: 1.69
ASKSRVQLFWDDP [K10W]: 1.55
ASKTRVQLFKDDP [S4T]: 3.6
ASKSRVQLFKLDP [D11L]: 1.46
ASKSRVQMFKDDP [L8M]: 0.456
ASKSRTQLFKDDP [V6T]: 1.76
ASKSRVQCFKDDP [L8C]: -0.285
ASKSRVQLFKDAP [D12A]: 2.82
ASKYRVQLFKDDP [S4Y]: 3.19
ASKSRMQLFKDDP [V6M]: 2

Study 3
Target: RNA binding protein fox-1 homolog 2, RRM domain, GST-SBP tag (RBFOX2, Homo sapiens, UniProt O43251-10, residues 100-194)
Method: RNA Bind-n-Seq
Form: RNA
Medium: in vitro
Tested at: 365 nM
Setting: natural RNA segment, single round, ends assumed
Relative to: no-protein control
Reading: higher = stronger binding
Endpoint: RBNS enrichment (R)
Constant ends, left off below: GGGAGUUCUACAGUCCGACGAUC … UGGAAUUCUCGGGUGCCAA
Construct (chain): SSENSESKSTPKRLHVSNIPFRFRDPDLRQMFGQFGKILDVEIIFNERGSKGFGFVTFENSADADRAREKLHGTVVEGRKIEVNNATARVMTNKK
UGUAGGCCCCUCUGCAACGACUUCCUUUGCACCAAAGACAACAGUCUACAAGUUUCUACUUUCUUGUUUGAUUGAGCAAAGUCUCCUAGUGACAGCAACACCAUGAAUUU: 0.374
CUCUUCUGUACCUCUCUUCUCUUAGAGAAAAAAAUGCCUUCCUUGCUUUGUAUCAUACCCAAUAUUUAAGGACAAUUUGUCACUCAGAGGACUUUAGAGUUAUAUUCCAA: 0.514
UAGGACCGUUUUCUCCCUCUCUCUUGUCCCUAUGGUAAAGUUCUCCCUGGCGUCCUUCUGAAACUACACCAUGUGGCCCCUUGGAACUAAUCCCAAGUCAAUGCGUGUAU: 0.878
UUUUGAAUGUGAAACACAUCUGUGCUCCUCUUGUCUAUUUUUUCUCUUCAUGUUUUAACAAAAAAGAAAAAAAGAAAAAAAAUCCCAUCCCUUUUGUACAUACUCCUGUA: 0.384
UGCACAUCUGUAAAUGACUGUAUGGUUAUGAUUAUAGUACCACGAAAAAUCAUGUUAUUUUUUUUUAAGACACACACAAAAAGAUACUUAAAGACCAAAAACUGUGCUGG: 0.545
CAGAGGGUCCCCCUUGUGGGUGCGCUUGGAUGUGCAGAGCCUUCUCCAUGGAUUUUCUUCCCUGUAAGUGCCGGGCCCCUCACCCCAGCUGACAGGCUGUUGCUGUGCCU: 0.274
GCAAUCCCUAGCAGAACAUUGUUUCUGAGGAGGCAUAUGUGAGAUUGAUUUGUUGGUUCAUGCCAAGUGUGUUCCACAGGUUGACUUUGAAUGUGGACCUCUGAGCAUCC: 0.304
GGCUCAUUUUGUUGAGCGUCUGCUUUUAUCUUGACACUGAGCACGAGAGGGCACGGGUGGGUGCUCACAGUGGGACCUUCUUGGAGGAAUCUCAGAGGGGGACAGAGAUG: 3.57

Mixed results
PhoQ, residues 284 288 289 292 302 303 SNGLAW  fold induction (PhoP, residues 12 14 15 18 19 NHFIF (Escherichia coli, UniProt P23836); Sort-seq, item: YFP reporter; E. coli; PhoQ-PhoP variant library, together with: 10 µM Mg2+; relative to: high Mg2+ state, higher = stronger signaling): 13

Repeated from above (study 1):
2'F-ANA at 3 7 9 13: 969 a.u.
2'F-ANA at 2 3 4 5 7 8 9 10 11 12 13 15: 55.1 a.u.
2'F-ANA at 3 4 5 7 8 9 10 12 13 14: 54.4 a.u.
2'F-ANA at 1 3 4 5 6 7 8 9 10 11 14: 58.8 a.u.
2'F-ANA at 3 4 9 10 12 13 14: 232 a.u.
2'F-ANA at 5 6 7 8 10 11 12 15: 49.7 a.u.
2'F-ANA at 1 4 7 8 9 12 13 14 15: 67.3 a.u.
